Results gathered from unrelated publications.
Each numbered part is a random draw from the data of one study; scales do not carry over between parts. Changes are numbered by the printed parent chain.

Block 1
Target: ABI1, truncated, D143A, DHFR fusion (Arabidopsis thaliana)
Technique: DHFR PCA, deep sequencing
Sample: yeast
Notes: methotrexate growth selection, single substitutions
With: (+)-ABA 58 µM
Relative to: wild-type fitted maximum
Reading: higher = stronger binding
Starting sequence: PYL1, truncated, DHFR fusion (Arabidopsis thaliana); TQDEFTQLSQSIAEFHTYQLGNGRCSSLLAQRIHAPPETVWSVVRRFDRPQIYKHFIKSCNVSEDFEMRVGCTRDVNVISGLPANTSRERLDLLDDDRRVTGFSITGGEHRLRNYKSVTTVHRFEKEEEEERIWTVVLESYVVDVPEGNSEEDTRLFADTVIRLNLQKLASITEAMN
`G23W`: “relative binding score” 53.8%.
`S63H` — result for “relative binding score”: 82.7%.
Under “relative binding score”, `S42P` is recorded as 66.7%.
`K168E` — result for “relative binding score”: 56.2%.
Under “relative binding score”, `G102F` is recorded as -5.78%.
`T101C` — result for “relative binding score”: 85.2%.

Block 2
Target: Sal-like protein 4, full length isoform A (SALL4, Homo sapiens, UniProt Q9UJQ4, residues 1-1053)
Chain of UniProt Q9UJQ4 (whole entry, looked up): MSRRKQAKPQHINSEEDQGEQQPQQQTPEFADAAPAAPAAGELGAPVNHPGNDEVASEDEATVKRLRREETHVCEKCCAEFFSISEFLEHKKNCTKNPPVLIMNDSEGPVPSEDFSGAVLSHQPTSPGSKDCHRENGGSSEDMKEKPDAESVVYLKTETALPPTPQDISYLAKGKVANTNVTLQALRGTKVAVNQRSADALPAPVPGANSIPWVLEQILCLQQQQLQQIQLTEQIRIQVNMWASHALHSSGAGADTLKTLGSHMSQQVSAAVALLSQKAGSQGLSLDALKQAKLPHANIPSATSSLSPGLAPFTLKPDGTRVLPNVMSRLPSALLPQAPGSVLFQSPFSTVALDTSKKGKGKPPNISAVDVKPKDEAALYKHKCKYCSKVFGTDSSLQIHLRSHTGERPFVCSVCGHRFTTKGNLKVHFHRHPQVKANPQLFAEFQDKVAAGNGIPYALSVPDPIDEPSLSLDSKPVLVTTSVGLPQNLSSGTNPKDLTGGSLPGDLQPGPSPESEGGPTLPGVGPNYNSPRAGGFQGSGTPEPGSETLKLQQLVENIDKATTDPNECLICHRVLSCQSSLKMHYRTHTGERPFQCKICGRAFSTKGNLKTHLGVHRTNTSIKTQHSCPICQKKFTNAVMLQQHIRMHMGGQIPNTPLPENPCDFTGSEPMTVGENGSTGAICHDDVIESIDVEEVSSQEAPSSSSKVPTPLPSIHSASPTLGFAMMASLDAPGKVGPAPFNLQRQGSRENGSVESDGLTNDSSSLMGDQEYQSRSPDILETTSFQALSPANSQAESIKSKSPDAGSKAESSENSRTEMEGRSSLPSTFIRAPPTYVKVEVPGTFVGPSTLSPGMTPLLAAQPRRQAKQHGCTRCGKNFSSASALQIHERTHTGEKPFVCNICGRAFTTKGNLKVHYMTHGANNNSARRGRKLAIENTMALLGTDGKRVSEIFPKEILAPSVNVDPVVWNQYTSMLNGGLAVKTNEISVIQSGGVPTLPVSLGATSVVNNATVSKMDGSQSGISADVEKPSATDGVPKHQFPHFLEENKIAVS
Technique: universal PBM
Molecule type: double-stranded DNA, one strand shown
Sample: in vitro
Concentration: 600 nM
Notes: 8-mer, flanks averaged, mean of replicates
Reading: higher = stronger binding
With `ATCGAGAC` the E-score was -0.0482.
`GTATTCCA` gave an E-score of 0.0333.
The E-score of `CACACGAA` is reported as 0.0572.
With `ATCACTTG` the E-score was 0.0831.
For `GAGCATAA`, the E-score was 0.191.
`CAATATCG` gave an E-score of 0.209.
For `AGTGATGA`, the E-score was 0.0937.
The E-score of `CCGCGACA` is reported as -0.265.

Block 3
Target: Histone acetyltransferase KAT6A, winged helix 2, GST fusion (KAT6A, Homo sapiens, UniProt Q92794, residues 85-181)
Technique: protein binding microarray
Molecule type: double-stranded DNA, one strand shown
Sample: in vitro
Concentration: not given
Notes: 8-mer, flanks averaged, mean of 2 arrays, mostly near background
Relative to: not given
Reading: higher = stronger binding
Construct (chain): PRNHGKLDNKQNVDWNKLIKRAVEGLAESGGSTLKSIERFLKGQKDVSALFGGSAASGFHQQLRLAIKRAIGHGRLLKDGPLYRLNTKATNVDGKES
`TAATTTCA` has an E-score of 0.116.
With `CAGGTTCC` the E-score was -0.0985.
The E-score of `ACAATGGT` is reported as -0.204.
For `AGTGTTCC`, the E-score was -0.0705.
The E-score of `AACCTCGT` is reported as -0.136.
The E-score of `GCCACCGA` is reported as 0.0573.
With `AACGTCTG` the E-score was 0.0203.
The E-score of `CTATAAAC` is reported as 0.0389.
`CGACGGCA` gave an E-score of 0.0515.

Single results of other studies
For `PhoQ, residues 284 288 289 292 302 303 DDMDFR`, the fold induction was 1.37 (PhoP, residues 12 14 15 18 19 NMSSL (Escherichia coli, UniProt P23836); Sort-seq, item: YFP reporter; E. coli; PhoQ-PhoP variant library, with: 10 µM Mg2+; relative to: high Mg2+ state, higher = stronger signaling).
